Results gathered from unrelated publications.
Numbered parts are unrelated; each lists some results of a single study. Positions count from the first letter of the parent shown.

Set 1
Target: Hepatocyte nuclear factor 3-alpha (Foxa1, Mus musculus, UniProt P35582, residues 1-468, full length assumed)
Technique: EMSA with sequencing
Molecule type: double-stranded DNA, one strand shown
Medium: in vitro
Tested at: 10 and 20 nM
Setting: whole designed probe, mean of two concentrations, ends assumed
Relative to: negative control set to 0
Direction: higher = stronger binding
Residues (chain): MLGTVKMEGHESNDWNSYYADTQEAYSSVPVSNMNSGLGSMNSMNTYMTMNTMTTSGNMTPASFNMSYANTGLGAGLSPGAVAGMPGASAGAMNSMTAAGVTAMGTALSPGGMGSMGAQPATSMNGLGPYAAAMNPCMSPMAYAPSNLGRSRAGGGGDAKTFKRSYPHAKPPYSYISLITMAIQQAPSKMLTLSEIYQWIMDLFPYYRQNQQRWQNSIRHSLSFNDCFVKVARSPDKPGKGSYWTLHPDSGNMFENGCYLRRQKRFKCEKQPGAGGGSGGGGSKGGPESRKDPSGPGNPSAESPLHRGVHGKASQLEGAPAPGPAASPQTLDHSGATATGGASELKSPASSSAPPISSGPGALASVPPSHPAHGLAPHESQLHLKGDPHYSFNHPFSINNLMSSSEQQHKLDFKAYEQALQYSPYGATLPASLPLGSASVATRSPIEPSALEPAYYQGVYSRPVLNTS
`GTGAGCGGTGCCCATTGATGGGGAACATCTTCCCCCTCTTCCTTGCCCCACCAGCTCACCTTCCCGGGTATCTGCAAATAAGGAAATTAATATAAGCCGGCATTCGTTAACCCTCTTCTGGCGCAAACTGCACATTGGTCTGGATGAATCATGGTCCTTTGGCGACGCCAGGCTCCGGGAGAGCAAAGCACCGTGTCAGGGCCATGATCCGGGGTGGCCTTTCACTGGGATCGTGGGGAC` — result for “normalised bound fraction”: 0.0723 ratio.
Under “normalised bound fraction”, `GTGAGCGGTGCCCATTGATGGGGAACTAAACAAAGCTGGTCGCCCAATGAAGAGGCGGCGGGGGCGGGCGCTGGGCCGGGGAGGCCGGGGGCGGAGCCGGGGGCGGGGCGACCGGGCGGTGTTTACAGACCGGCTCATCGCGCTTCCGGTTGACGTTGCTGACAGCTAGTGAGGCTTTAGCCCGCTTCGAGCGCCTCGGCGCGGTAAGGCGCGATCATATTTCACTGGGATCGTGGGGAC` is recorded as 0.462 ratio.
Under “normalised bound fraction”, `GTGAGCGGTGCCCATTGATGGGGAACACAGCCTGGTAATACCTCAGGTTCCCAAGAACTCCAGGGCCTGTAAACATGCCAGTCACACGTGGGCCTGCTTAGAAGGCCGATGGCCTTTGAGTAATTTATCTACACCTTGCATAAATCTCTGCACTTTGAGTGGCAAAGAGGCCATTCCCTGAGGGTGACTTGGAAAACCAGAGGTGCAGTGACTCAGCCTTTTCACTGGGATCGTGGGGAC` is recorded as -0.0502 ratio.
For `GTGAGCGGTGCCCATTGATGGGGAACATCTTCCCCCTCTTCCTTGCCCCACCAGCTCACCTACGGGGGTTATTTGCACAAAGGAAAATAAATAAAGCCGGCATTCGTTAACCCTCTTCTGGCGCAAACTGCTGTTTGCTCTGCATCTAACATGGTCCTTACGCGACGCCAGGCTCCGGGAGAGCAAAGCACCGTGTCAGGCGCATGATCCGGGCTCGCCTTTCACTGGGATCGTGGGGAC`, “normalised bound fraction” read 0.389 ratio.
Under “normalised bound fraction”, `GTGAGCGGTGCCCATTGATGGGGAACGACAGTACATGTTTTAGGATTTTTGGACCACACAGTCTCTGTCACAATGACTCAGCTTTGCCATTGTAGCGTGCAAACAGCCACAAACCATATGCAAACAAATGTATGCCAATAAAGAGGGTGTGGTACTTTATTTACAAAAGCAGGAGGACAGTGGAGTTGGCTTGCAGACAGTCATTTGCAGAGCCCTGATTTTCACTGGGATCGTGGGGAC` is recorded as 0.443 ratio.
`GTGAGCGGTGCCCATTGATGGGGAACCTGCAGCACTACAGCCCCTTTCTAGGACATCCCTGAAGGATGCAGTGAAGGGAAATCTTCCCAGTGGGCAGAACTTCCAGCAGTGGTCCTGGTTGTGTACTTTGCATGGAAGGAGAAATAATCAAATGTGTGATTACATACTGATTCATGGGCTGCAGCCAATGGTTTGGCTGGATGGTCAGGGAGGTCATTCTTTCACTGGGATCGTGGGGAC` — result for “normalised bound fraction”: 0.11 ratio.
`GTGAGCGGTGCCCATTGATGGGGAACACAGCAACTAGGTAGAGAGAGTTCACAGTTTGTGAACTCTGTGAATCTGGTATCAGGCTGGCTGGGAGAAGGGCCTAAAGGGTGTGTGAAATGTAATCTAGGGCTTCCTGACGCTGCTCTGTGACTTGTGCTAAACTTTCTGGGGGTGGCAGACCCAGAGTAGTCATACCCAATCCATGAATCCAACATTCACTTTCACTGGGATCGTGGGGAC`: “normalised bound fraction” -0.0544 ratio.
For `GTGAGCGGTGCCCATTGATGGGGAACGCACTAAAAATATGTTTTTTTAAAAAATCTCCAGGGCCACTCCTAGGGTGTGCAGTGCCCTGCAAAGATAGTTTTTGTAGGGTACTTGCCTATGTAAACAACACAATTTTAGAATTCATTCCAAAACTTACAGGTCTGTGTGAGGTATAGTGATTAATGGATAGAGAAGAGATGCTTACACATTTGTTTATTGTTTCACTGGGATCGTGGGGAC`, “normalised bound fraction” read 0.46 ratio.

Set 2
Target: RNA binding protein fox-1 homolog 2, RRM domain, GST-SBP tag (RBFOX2, Homo sapiens, UniProt O43251-10, residues 100-194)
Technique: RNA Bind-n-Seq
Molecule type: RNA
Medium: in vitro
Tested at: 365 nM
Setting: natural RNA segment, single round, ends assumed
Relative to: no-protein control
Direction: higher = stronger binding
Target sequence (chain): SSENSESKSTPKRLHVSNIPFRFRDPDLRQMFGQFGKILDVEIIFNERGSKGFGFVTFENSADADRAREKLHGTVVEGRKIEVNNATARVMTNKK
Under “RBNS enrichment (R)”, `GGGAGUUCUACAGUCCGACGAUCGUCCCUCUCAAUGGCACUCUUUGCCUAGACCAAACUAAUGACCAAACAGUAAUCAAUCUAUCACUGUUGAAGUCCUGGUUUUCUCAACCAAAUUUUAAGUCUUUCCCAGGUGGAAUUCUCGGGUGCCAA` is recorded as 0.222.
`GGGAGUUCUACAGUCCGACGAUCUGUUUUCUUUAUUCCUUUUGCACUCUCGGUUCCCACCUUUGUGUUGGAGUUUACCAUGUUACCCUGUAAUUAAAAACAAAGAAUAGGUAACAUAUUGUGCCAGUGUUGCAUGGAAUUCUCGGGUGCCAA` — result for “RBNS enrichment (R)”: 0.766.
`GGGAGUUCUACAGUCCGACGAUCAAACUUACUUUCUCUAAAAUUCCUGCAGCAGACACCAGAGGCACCCCAGACCUAGACCUCCCUUCUAAAAGCCAGAACCAGGAAGGCUUGCAUAAAGAAGGUGUGGCCUCUGGAAUUCUCGGGUGCCAA`: “RBNS enrichment (R)” 0.637.
For `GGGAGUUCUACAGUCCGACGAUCCUAUUUACAAAUUAGGAAAGCAACCUUUUGGUUUAUAUAUAUUUUUUUUAAUACCUCAGUGCUGCAAGUAUCACCAGAGAGGCUAUGGAAGAAUUUUUUUUUAAUUUAUUUGGAAUUCUCGGGUGCCAA`, “RBNS enrichment (R)” read 1.2.
`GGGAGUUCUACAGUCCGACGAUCGCCUUGGGAGAAGUCUACAUUUCCCAGACAAUAGUCUAGGCCUCUGGAACAGUUUCCUUCUCUGCUUUUGACUUUAAAUCCCUGGGUGUCCCCCAGGAGUCAGUUUGCUAUGGAAUUCUCGGGUGCCAA` — result for “RBNS enrichment (R)”: 0.262.
For `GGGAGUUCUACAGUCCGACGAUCCCUCAGCCCGGGACGCCACAAACUGAAGCGAGUUCCCUGCUUUGCUCGUCACAAAUGCCAAACUGACUGCUCUUUCCCAGUGCCCAGUGCUGUCUUUUGCUUCUGUUUGAUGGAAUUCUCGGGUGCCAA`, “RBNS enrichment (R)” read 0.595.
Under “RBNS enrichment (R)”, `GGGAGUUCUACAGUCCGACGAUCUUGUAGUUCUUUCUUUAAAAAACAUUUUUUUUAAAGAAGAAGAAGCCACUUGAACCCUCAAUAAAGGCUGUUGCCUAAGCAUGGCAUACUUCAUCUGUUCUCAUUUGUGCUGGAAUUCUCGGGUGCCAA` is recorded as 0.39.
`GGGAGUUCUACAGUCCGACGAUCGCCAUUGUCAUAGCACAGAGAUUUCAGAAGCACCUGCAGGUGGCUUGCUUGGGAUGUUGCUGUCCCUGGGUCAGCCUUCCAUUCUGCUUUCCUGUCUUCCCGUCUGCCUUUGGAAUUCUCGGGUGCCAA`: “RBNS enrichment (R)” 0.388.
`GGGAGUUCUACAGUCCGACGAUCCAGCAAGAAAGGCCAUGCCACCUGCCCUUGACUACACAGGAACAGUGAACAGCAUUUUCGUUCCUGACCCAAUGAGAAAGAGGCACUCAUCUCUGACCCAAUGAGAAAGAUGGAAUUCUCGGGUGCCAA`: “RBNS enrichment (R)” 4.42.
`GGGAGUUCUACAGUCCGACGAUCAAGCCUAUUGCCUUUUCUCCUUUUACUUCAGCACCCAGCUACUGACUGGUUUCCAUAUCCCCACCCUACACCAGGGUUCCAUUUGGAAGUAUACCUUGUUUAUCAGUCAGUGGAAUUCUCGGGUGCCAA` — result for “RBNS enrichment (R)”: 0.202.
`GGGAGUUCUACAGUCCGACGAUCUACCAGUGGGCUGCUGCUCUGUGGCUGAGGGGCCAUCUAUGCAGAGUCUGUCCCUAUUUAUGUAUGGUGGUUGAGGGCUGUGUGGCCAGGACCAAGAGCAAGGCCCAGCUUGGAAUUCUCGGGUGCCAA` — result for “RBNS enrichment (R)”: 0.761.
Under “RBNS enrichment (R)”, `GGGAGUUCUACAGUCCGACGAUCGAUGCUUUUCUUCUAUAUUCUUACUCUGUACAAAUAAAGAAGUUGCUUGUUGUUUGAGAAGUUUAACCCCGUUGCUUGUUGUUCUGCAGCCCUGUCUACUUGGGCACCCCUGGAAUUCUCGGGUGCCAA` is recorded as 0.725.

Set 3
Target: ABI1, truncated, D143A, DHFR fusion (Arabidopsis thaliana)
Technique: DHFR PCA, deep sequencing
Medium: yeast
Setting: methotrexate growth selection, single substitutions
Added: (+)-ABA 0.11 µM
Relative to: wild-type fitted maximum
Direction: higher = stronger binding
Starting sequence: PYL1, truncated, DHFR fusion (Arabidopsis thaliana); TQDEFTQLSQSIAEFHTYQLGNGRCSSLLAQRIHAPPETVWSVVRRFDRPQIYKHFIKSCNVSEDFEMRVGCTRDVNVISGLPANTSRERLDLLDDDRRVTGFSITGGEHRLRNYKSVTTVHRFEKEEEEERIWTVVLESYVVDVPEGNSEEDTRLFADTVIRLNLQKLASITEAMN
`G108F`: “relative binding score” -1.29%.
For `V143S`, “relative binding score” read -2.18%.
Under “relative binding score”, `T101Q` is recorded as -5.12%.
For `I12S`, “relative binding score” read 0.833%.
`T135I` — result for “relative binding score”: -1.51%.
`F5M`: “relative binding score” 43.9%.
Under “relative binding score”, `E151D` is recorded as 21.9%.
For `Q51W`, “relative binding score” read -3.75%.
Under “relative binding score”, `L28G` is recorded as 3.43%.
For `V62H`, “relative binding score” read 1.26%.
`L156Y`: “relative binding score” -1.47%.
`A13K`: “relative binding score” 49.2%.
`G81M`: “relative binding score” 8.66%.
`T73P` — result for “relative binding score”: -1.87%.
`R99A` — result for “relative binding score”: -11.5%.
Under “relative binding score”, `I133C` is recorded as 53.9%.
For `R88A`, “relative binding score” read 3.5%.
For `E67L`, “relative binding score” read 2.75%.
Under “relative binding score”, `E151Y` is recorded as 11.5%.
Under “relative binding score”, `R46Y` is recorded as -6.52%.
For `T160M`, “relative binding score” read 8.47%.
Under “relative binding score”, `S150L` is recorded as 10%.

Set 4
Target: Histone acetyltransferase KAT6A, winged helix 2, GST fusion (KAT6A, Homo sapiens, UniProt Q92794, residues 85-181)
Technique: protein binding microarray
Molecule type: double-stranded DNA, one strand shown
Medium: in vitro
Tested at: not given
Setting: 8-mer, flanks averaged, mean of 2 arrays, mostly near background
Relative to: not given
Direction: higher = stronger binding
Construct (chain): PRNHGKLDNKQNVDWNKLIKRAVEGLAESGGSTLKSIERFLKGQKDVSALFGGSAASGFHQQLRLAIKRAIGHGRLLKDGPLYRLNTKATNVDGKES
`GTCCTCAC` gave an E-score of -0.0227.
The E-score of `ATAGAAGC` is reported as 0.0264.
With `TCATTGAA` the E-score was 0.0227.
With `CACCTACG` the E-score was -0.143.
For `AAGGGTGC`, the E-score was -0.0182.
For `GCGCCTTA`, the E-score was 0.0219.
`GCCACAGC` has an E-score of 0.0855.
`AATCTGAC` gave an E-score of 0.00954.
With `ACATGCCC` the E-score was 0.00744.
`AAACCTTG` has an E-score of 0.00171.
For `CAGGCTAC`, the E-score was 0.0226.
The E-score of `AGGGTAGA` is reported as -0.0817.
With `ATGGTCGC` the E-score was 0.0783.
With `TACTCAAA` the E-score was 0.0784.
With `TTGGTAAA` the E-score was 0.116.
`ATACCAAA` gave an E-score of -0.00779.
`CTATTTAC` has an E-score of -0.149.
The E-score of `AACGGGAC` is reported as -0.12.

Excerpt of the above (set 3):
Under “relative binding score”, `T101Q` is recorded as -5.12%.
For `I12S`, “relative binding score” read 0.833%.
`T135I` — result for “relative binding score”: -1.51%.
